Measurements gathered from unrelated publications.
Each line is one published result; not all experiments were run side by side.

| Structure (SMILES) | species | medium | route | dose | Tmax [min] |
| --- | --- | --- | --- | --- | --- |
| CC/C(=C(\c1ccccc1)c1ccc(OCCN(C)C)cc1)c1ccccc1 | CD-1 mouse, male | lung | intraperitoneal | 10 mg/kg | 360 |
| NC(=O)c1cccc(-c2cc(OC(=O)NC3CCCCC3)ccc2O)c1 | mouse | plasma | intravenous | 10 mg/kg | 4.8 |
| Cc1ncsc1-c1ccc([C@H](CC(=O)NCCOCCOCCOCCOCCOCCC(=O)N2CCC(Nc3cc(C(=O)NC[C@H](O)CN4CCc5ccccc5C4)ncn3)CC2)NC(=O)[C@@H]2C[C@@H](O)CN2C(=O)[C@@H](NC(=O)C2(F)CC2)C(C)(C)C)cc1 | male Swiss albino mouse | plasma | intraperitoneal | 50 mg/kg | 30 |
| CCCCCCCC(=O)N[C@@H](CCCCN)C(=O)N[C@@H](CCCCN)C(=O)N[C@@H](C)C(=O)N[C@@H](CC(C)C)C(=O)N[C@@H](CCCCN)C(=O)N[C@@H](CC(C)C)C(=O)N[C@@H](C)C(=O)N[C@@H](CCCCN)C(=O)N[C@@H](CCCCN)C(=O)N1CCC[C@H]1C(=O)N[C@@H](CC(C)C)C(=O)N[C@@H](CCCCN)C(=O)N[C@@H](CC(C)C)C(=O)N[C@@H](CC(C)C)C(=O)N[C@@H](CCCCN)C(N)=O | mouse ICR CD1 female | whole blood | intravenous bolus | 10 mg/kg | 1.8 |
| CN[C@H]1CC[C@@H](c2ccc(Cl)c(Cl)c2)c2ccccc21 | CD-1 mouse, male | plasma | intraperitoneal | 1 mg/kg | 30 |
| CCC[C@@](N)(CO)CCc1ccc(OCCCCCC(C)C)cc1 | C57BL/6 mouse | plasma | intraperitoneal | 10 mg/kg | 15 |
| Clc1nc[n]([Au][PH](c2ccccc2)(c2ccccc2)c2ccccc2)c1Cl | NCG mouse | plasma | intraperitoneal | 10 mg/kg | 90 |
| C(#Cc1c[nH]c2nccc(-c3ccncc3)c12)c1cccnc1 | mouse C57BL/6 male | plasma | oral | 20 mg/kg | 15 |
| COc1cc2c(cc1OC)CN(CCc1ccc(NC(=O)c3cccc4c(=O)c5cccc(OC)c5[nH]c34)cc1)CC2 | CD-1 mouse, male | lung | intraperitoneal | 3 mg/kg | 60 |
| O=c1c2cc(Cl)c(CO)cc2[nH]c(=S)n1Cc1cncnc1 | mouse | plasma | oral | 50 mg/kg | 15 |
| CN(C)C1(CNC(=O)c2ccc3c(c2)CCN3C(=O)c2ccccc2)CCOCC1 | ICR mouse, male | plasma | intraperitoneal | 30 mg/kg | 60 |
| COc1cccc2c1CCCC2CCCN1CCN(C2CCCCC2)CC1 (centres unmarked) | CD-1 mouse, male | plasma | intraperitoneal | 0.3 mg/kg | 30 |
| N#C[C@@]1(n2ccc(N)nc2=O)O[C@H](CO)[C@@H](O)[C@H]1O | CD-1 mouse | plasma | oral | 30 mg/kg | 30 |
| Cc1ccc(F)c2cc(C(=O)N[C@@H]3CCC[C@H](N4CC[C@H](N(C)S(C)(=O)=O)C4)C3)[nH]c12 | CD1 mouse | – | oral | 30 mg/kg | 96 |

Some of these lines once more:
| Structure (SMILES) | species | medium | route | dose | Tmax [min] |
| --- | --- | --- | --- | --- | --- |
| N#C[C@@]1(n2ccc(N)nc2=O)O[C@H](CO)[C@@H](O)[C@H]1O | CD-1 mouse | plasma | oral | 30 mg/kg | 30 |
